Assay results pooled from the literature.
Each numbered part is a random draw from the data of one study; scales do not carry over between parts. “And” joins repeats or separate records; there may be more than shown.
Chain of UniProt Q14012 (whole entry, looked up): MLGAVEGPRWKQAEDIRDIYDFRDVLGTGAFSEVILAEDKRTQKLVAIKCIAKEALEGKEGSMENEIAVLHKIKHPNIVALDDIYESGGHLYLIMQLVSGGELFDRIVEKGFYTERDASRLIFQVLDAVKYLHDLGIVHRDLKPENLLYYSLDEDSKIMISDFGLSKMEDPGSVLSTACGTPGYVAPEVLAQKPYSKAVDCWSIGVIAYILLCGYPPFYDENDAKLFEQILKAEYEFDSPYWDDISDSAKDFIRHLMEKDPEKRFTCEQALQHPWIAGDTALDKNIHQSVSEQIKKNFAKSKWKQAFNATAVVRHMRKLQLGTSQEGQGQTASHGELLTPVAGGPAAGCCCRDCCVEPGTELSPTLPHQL
Chain of UniProt P32298 (whole entry, looked up): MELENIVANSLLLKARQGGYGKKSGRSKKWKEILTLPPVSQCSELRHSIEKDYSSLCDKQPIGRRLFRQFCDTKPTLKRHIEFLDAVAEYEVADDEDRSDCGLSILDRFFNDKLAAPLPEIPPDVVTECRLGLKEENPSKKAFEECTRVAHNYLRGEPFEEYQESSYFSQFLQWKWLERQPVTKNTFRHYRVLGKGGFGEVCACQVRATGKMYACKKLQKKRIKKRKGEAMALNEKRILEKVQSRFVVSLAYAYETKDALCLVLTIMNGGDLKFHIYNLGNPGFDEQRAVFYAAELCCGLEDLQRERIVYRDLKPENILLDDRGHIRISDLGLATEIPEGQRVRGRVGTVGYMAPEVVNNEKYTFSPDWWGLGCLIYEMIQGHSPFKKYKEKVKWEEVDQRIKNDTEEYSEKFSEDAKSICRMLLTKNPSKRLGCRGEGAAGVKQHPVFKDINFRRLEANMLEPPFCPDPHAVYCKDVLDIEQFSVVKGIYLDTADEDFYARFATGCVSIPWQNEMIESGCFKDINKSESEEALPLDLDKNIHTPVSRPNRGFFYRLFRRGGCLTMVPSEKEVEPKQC
Chain of UniProt Q9HC98 (whole entry, looked up): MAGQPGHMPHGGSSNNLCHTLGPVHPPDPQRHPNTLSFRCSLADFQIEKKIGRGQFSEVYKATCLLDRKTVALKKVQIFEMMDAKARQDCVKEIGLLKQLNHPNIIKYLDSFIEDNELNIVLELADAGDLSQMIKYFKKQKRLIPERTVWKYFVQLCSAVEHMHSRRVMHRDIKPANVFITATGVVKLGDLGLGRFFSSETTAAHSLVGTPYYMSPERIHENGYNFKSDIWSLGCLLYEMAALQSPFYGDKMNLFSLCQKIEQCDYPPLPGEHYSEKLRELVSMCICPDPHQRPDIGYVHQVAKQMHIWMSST
Chain of UniProt Q15759 (whole entry, looked up): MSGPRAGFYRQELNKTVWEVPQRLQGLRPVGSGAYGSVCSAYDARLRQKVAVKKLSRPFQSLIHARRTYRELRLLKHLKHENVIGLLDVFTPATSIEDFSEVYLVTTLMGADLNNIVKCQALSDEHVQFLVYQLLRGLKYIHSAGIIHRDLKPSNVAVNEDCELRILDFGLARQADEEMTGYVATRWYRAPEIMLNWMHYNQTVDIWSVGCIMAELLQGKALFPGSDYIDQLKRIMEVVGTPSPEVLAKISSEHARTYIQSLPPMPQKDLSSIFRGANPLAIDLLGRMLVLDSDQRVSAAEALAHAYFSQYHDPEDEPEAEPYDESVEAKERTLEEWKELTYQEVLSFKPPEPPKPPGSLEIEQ

Study 1 — read-out: enzyme activity; action: inhibitor; tested at: 77 µM; reference: untreated; quantity: remaining activity
Target: DNA polymerase theta, ATPase domain (POLQ, Homo sapiens, UniProt O75417)
Chain of UniProt O75417 (whole entry, unmodified, looked up): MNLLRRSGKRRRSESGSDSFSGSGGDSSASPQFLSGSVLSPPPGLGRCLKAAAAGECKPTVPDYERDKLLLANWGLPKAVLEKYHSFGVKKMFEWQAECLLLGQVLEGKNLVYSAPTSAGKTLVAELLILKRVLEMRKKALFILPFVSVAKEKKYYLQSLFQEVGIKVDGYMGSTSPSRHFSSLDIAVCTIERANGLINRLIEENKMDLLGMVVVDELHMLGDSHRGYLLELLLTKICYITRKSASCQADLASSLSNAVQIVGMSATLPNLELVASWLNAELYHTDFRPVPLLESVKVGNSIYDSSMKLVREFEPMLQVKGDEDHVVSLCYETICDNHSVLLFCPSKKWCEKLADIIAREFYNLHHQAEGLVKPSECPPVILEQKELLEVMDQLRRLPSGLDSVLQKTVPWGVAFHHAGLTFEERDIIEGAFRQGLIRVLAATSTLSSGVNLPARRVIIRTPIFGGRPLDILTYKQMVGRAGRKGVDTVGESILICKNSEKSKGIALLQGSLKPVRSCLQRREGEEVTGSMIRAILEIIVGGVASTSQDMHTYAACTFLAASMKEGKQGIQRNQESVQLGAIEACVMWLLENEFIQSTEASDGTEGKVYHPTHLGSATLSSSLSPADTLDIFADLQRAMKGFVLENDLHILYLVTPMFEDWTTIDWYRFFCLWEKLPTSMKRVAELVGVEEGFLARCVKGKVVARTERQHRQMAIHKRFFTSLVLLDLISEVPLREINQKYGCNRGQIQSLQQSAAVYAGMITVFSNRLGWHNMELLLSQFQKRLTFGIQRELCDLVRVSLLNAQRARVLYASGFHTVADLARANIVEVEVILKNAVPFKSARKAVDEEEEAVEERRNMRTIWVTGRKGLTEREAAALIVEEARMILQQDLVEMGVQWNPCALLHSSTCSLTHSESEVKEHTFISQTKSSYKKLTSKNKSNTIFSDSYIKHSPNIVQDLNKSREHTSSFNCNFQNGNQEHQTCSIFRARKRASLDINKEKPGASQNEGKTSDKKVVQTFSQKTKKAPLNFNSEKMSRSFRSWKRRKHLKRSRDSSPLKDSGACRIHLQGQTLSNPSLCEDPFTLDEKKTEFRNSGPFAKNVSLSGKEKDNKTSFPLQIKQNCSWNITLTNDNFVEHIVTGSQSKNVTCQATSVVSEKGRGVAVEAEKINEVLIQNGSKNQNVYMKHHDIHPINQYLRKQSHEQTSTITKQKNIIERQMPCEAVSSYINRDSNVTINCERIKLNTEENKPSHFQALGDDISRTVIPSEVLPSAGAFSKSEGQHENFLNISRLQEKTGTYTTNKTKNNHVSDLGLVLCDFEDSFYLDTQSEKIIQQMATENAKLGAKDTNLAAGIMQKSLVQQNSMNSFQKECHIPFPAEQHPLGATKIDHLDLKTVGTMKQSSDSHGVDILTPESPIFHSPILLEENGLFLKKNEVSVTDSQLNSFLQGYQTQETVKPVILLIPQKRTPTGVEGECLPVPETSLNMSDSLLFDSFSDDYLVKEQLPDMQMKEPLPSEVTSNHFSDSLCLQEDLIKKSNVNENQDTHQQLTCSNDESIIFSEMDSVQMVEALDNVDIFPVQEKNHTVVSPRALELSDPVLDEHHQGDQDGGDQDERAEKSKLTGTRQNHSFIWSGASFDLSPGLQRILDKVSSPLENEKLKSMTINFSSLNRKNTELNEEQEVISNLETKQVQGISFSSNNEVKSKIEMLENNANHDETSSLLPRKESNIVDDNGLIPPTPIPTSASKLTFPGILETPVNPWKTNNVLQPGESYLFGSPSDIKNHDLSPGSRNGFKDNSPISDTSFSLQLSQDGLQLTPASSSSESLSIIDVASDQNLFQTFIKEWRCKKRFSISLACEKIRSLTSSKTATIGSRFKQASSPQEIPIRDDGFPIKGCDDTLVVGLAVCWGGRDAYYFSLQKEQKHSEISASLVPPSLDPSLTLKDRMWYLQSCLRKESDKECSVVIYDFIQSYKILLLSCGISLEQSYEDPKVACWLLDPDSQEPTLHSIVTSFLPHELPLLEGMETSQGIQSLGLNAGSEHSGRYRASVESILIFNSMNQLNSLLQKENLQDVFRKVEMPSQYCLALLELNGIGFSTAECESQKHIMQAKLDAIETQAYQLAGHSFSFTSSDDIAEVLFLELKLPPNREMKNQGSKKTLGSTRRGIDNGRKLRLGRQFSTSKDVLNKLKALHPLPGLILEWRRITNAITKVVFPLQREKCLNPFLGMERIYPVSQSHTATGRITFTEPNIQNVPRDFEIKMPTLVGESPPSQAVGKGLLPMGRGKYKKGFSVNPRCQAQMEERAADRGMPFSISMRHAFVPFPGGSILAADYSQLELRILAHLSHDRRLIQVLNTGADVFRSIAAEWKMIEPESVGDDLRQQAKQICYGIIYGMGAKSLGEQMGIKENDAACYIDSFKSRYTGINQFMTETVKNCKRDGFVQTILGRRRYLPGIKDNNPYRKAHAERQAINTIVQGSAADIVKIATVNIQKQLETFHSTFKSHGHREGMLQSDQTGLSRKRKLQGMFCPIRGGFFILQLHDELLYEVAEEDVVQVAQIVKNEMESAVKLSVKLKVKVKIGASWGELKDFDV
O=C(O)CCC(=O)Nc1ccc(S(=O)(=O)Nc2nccs2)cc1: 95%
C[C@](N)(Cc1ccc(O)cc1)C(=O)O: 104%
CC(C)C[C@H](NC(=O)[C@@H](NC(=O)c1cccc(-c2ccccc2)n1)[C@@H](C)O)B(O)O: 102%
C=C(C)[C@@H]1CC[C@]2(C(=O)O)CC[C@]3(C)[C@H](CC[C@@H]4[C@@]5(C)CC[C@H](O)C(C)(C)[C@@H]5CC[C@]43C)[C@@H]12: 108% and 101%
NC(N)=NCc1cccc(I)c1: 95.3% and 102%
C[n+]1cccc(C(=O)[O-])c1: 100%
CN1CCCN(C(c2ccccc2)c2ccc(Cl)cc2)CC1 (centres unmarked): 103%
CN(C)CCOc1ccc(/C(=C(/CCCl)c2ccccc2)c2ccccc2)cc1: 103%
COc1cc(NS(C)(=O)=O)ccc1Nc1c2ccccc2nc2ccccc12: 91.4%
Cc1cc(NC(=O)c2cccc(NC(=O)/C=C/CN(C)C)c2)ccc1Nc1nccc(-c2cccnc2)n1: 107%
Cc1ncc([N+](=O)[O-])n1CC(O)CCl (centres unmarked): 99.6% and 96.1%
CC(C)(C)c1cc(/C=C(\C#N)C(N)=S)cc(C(C)(C)C)c1O: 99.8%
CC(NC(=O)c1ccccc1/N=C/c1c(O)ccc2ccccc12)c1ccccc1 (centres unmarked): 91.9%
C=CCc1ccc(O)c(-c2ccc(O)c(CC=C)c2)c1: 93.2%
CNc1nccc(-c2cccnc2Oc2cc(C(=O)Nc3cccc(C(F)(F)F)c3)ccc2C)n1: 113% and 115% and 109%

Study 2 — read-out: enzyme activity; action: inhibitor; tested at: 0.5 µM; reference: control; quantity: remaining activity
Target: MAP/microtubule affinity-regulating kinase 3 (MARK3, Homo sapiens, UniProt P27448)
Chain of UniProt P27448 (whole entry, looked up): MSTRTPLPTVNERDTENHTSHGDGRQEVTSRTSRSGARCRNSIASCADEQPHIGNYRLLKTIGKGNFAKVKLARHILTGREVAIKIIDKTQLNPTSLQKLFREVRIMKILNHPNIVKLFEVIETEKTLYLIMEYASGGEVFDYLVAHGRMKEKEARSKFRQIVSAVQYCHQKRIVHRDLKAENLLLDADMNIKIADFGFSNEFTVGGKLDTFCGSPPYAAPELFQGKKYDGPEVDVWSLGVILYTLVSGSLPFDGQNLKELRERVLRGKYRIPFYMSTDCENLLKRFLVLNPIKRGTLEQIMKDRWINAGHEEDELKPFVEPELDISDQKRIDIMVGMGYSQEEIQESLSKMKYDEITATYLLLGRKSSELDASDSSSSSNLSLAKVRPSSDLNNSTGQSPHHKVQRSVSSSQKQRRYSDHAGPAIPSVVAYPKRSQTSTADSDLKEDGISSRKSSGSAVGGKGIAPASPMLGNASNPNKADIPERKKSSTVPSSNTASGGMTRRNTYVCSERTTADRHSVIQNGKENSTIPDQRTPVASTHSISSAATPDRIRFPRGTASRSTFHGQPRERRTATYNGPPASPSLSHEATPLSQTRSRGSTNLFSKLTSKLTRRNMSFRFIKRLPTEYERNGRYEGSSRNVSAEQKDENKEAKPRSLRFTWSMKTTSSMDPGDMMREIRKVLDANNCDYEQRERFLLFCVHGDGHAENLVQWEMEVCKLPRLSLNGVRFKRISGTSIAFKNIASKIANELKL
Cn1nc2c3c(cccc31)C(=O)c1ccccc1-2: 96.6%
CN([C@@H](Cc1ccc(OS(=O)(=O)c2cccc3cnccc23)cc1)C(=O)N1CCN(c2ccccc2)CC1)S(=O)(=O)c1cccc2cnccc12: 93.7%
O=c1cc(-c2cccc3c2Sc2ccccc2S3)oc(N2CCOCC2)c1: 106%
COc1cc2ncnc(Nc3ccc(O)c(Br)c3)c2cc1OC: 98.8%
c1ccc(-c2cnc(Nc3ccc(OCCN4CCCC4)cc3)s2)cc1: 93.1%
O=C1c2ccccc2-c2n[nH]c3cccc1c23: 72.2%
C[C@@H]1CCN(C(=O)CC#N)C[C@@H]1N(C)c1ncnc2[nH]ccc12: 78.6%
CCN(CC)C(=O)c1ccc(Nc2nc(OCC3CCCCC3)c3[nH]cnc3n2)cc1: 85.4%
Cc1cn(-c2cc(NC(=O)c3ccc(C)c(Nc4nccc(-c5cccnc5)n4)c3)cc(C(F)(F)F)c2)cn1: 93.8%
CCOc1nc(NC(=O)Cc2cc(OC)ccc2OC)cc(N)c1C#N: 94.8%
O=C(Nc1cccc(Nc2nccc(Nc3cccc(C(F)(F)F)c3)n2)c1)C1CC1: 102%
O=C1C(Cl)=C(N2C(=O)CCC2=O)C(=O)c2ccccc21: 87.8%
c1ccc(-c2[nH]ncc2-c2ccnc3ccccc23)nc1: 87.5%
N#C/C(=C\c1ccc(O)c(O)c1)C(=O)NCc1ccccc1: 97.5%
Cc1cc2ncc(-c3ccccc3)nc2cc1C: 101%
Ic1cccc(CSc2nnc(-c3ccncc3)o2)c1: 124%
CN(C)C[C@H]1CCn2c(c(C3=C(c4cn(C)c5ccccc45)C(=O)NC3=O)c3ccccc32)C1: 92.3%
Nc1cccc(-c2cc3c(Oc4cccc(O)c4)ncnc3[nH]2)c1: 77.5%
COc1cc2ncnc(Nc3cccc(Cl)c3)c2cc1OC: 89.8%
N#Cc1c(NC(=O)c2cccc3ccccc23)sc2c1CCCC2: 97.1%
O=C(NC(NC(=S)Nc1ccc(F)c([N+](=O)[O-])c1)C(Cl)(Cl)Cl)C(c1ccccc1)c1ccccc1 (centres unmarked): 104%
CCN(CC)CCNC(=O)c1c(C)[nH]c(/C=C2\C(=O)Nc3ccc(Cl)cc32)c1C: 7.86%
Cc1nc2cc3nc(-c4cccs4)cnc3cc2n1C: 105%
COc1cc2c(cc1OC)-c1[nH]nc(Nc3cccc(F)c3)c1C2: 69.9%

Study 3 — tested at: 1 µM; quantity: remaining binding
SMILES: COc1ccc2[nH]c3c4[nH]c5ccc(OC)cc5c4c4c(c3c2c1)C(=O)NC4=O
Tyrosine-protein kinase ABL1 (ABL1, Homo sapiens, UniProt P00519, F317I); competitive binding scan: 73%
Platelet-derived growth factor receptor beta (PDGFRB, Homo sapiens, UniProt P09619); competitive binding panel; reference: vehicle: 0.1%
G protein-coupled receptor kinase 4 (GRK4, Homo sapiens, UniProt P32298); competitive binding panel; reference: vehicle: 100%
Glycogen synthase kinase-3 beta (GSK3B, Homo sapiens, UniProt P49841); competitive binding panel; reference: vehicle: 68%
Calcium/calmodulin-dependent protein kinase type 1 (CAMK1, Homo sapiens, UniProt Q14012); competitive binding panel; reference: vehicle: 80%
Phosphatidylinositol 4,5-bisphosphate 3-kinase catalytic subunit alpha isoform (PIK3CA, Homo sapiens, UniProt P42336, M1043I); competitive binding panel; reference: vehicle: 95%
Phosphorylase b kinase gamma catalytic chain, liver/testis isoform (PHKG2, Homo sapiens, UniProt P15735); competitive binding panel; reference: vehicle: 52%
Mitogen-activated protein kinase 11 (MAPK11, Homo sapiens, UniProt Q15759); competitive binding; p38-beta: 100%
Transient receptor potential cation channel subfamily M member 6 (TRPM6, Homo sapiens, UniProt Q9BX84); competitive binding panel; reference: vehicle: 79%

Study 4 — read-out: cell-free assay; method: competition with immobilised ligand; tested at: 0.1 µM; quantity: remaining binding
SMILES: CCOC(=O)c1cc2cc(-c3cc(C(=O)NCc4ccc(C(=O)O)cc4)nn3C)ccc2[nH]1
Serine/threonine-protein kinase Nek6 (NEK6, Homo sapiens, UniProt Q9HC98): 95%
Serine/threonine-protein kinase D2 (PRKD2, Homo sapiens, UniProt Q9BZL6): 100%
Glycogen synthase kinase-3 alpha (GSK3A, Homo sapiens, UniProt P49840): 100%
Leucine-rich repeat serine/threonine-protein kinase 2 (LRRK2, Homo sapiens, UniProt Q5S007): 81%
Serine/threonine-protein kinase PAK 3 (PAK3, Homo sapiens, UniProt O75914): 77%
Receptor-type tyrosine-protein kinase FLT3, autoinhibited (FLT3, Homo sapiens, UniProt P36888): 98%
Cyclin-dependent kinase-like 3 (CDKL3, Homo sapiens, UniProt Q8IVW4): 0%
Tyrosine-protein kinase ABL1, phosphorylated (ABL1, Homo sapiens, UniProt P00519): 94%
Tyrosine-protein kinase ABL1, phosphorylated (ABL1, Homo sapiens, UniProt P00519, Y253F): 93%
Serine/threonine-protein kinase RIO3 (RIOK3, Homo sapiens, UniProt O14730): 100%
Ribosomal protein S6 kinase alpha-1, C-terminal kinase domain (RPS6KA1, Homo sapiens, UniProt Q15418): 84%
Ribosomal protein S6 kinase beta-1 (RPS6KB1, Homo sapiens, UniProt P23443): 88%
3-phosphoinositide-dependent protein kinase 1 (PDPK1, Homo sapiens, UniProt O15530): 92%
Calcium/calmodulin-dependent protein kinase type 1 (CAMK1, Homo sapiens, UniProt Q14012): 87%
G protein-coupled receptor kinase 4 (GRK4, Homo sapiens, UniProt P32298): 100%
Mitogen-activated protein kinase 9 (MAPK9, Homo sapiens, UniProt P45984): 96%
Serine/threonine-protein kinase PLK4 (PLK4, Homo sapiens, UniProt O00444): 82%

Repeated from above (study 4):
Receptor-type tyrosine-protein kinase FLT3, autoinhibited (FLT3, Homo sapiens, UniProt P36888): 98%
Cyclin-dependent kinase-like 3 (CDKL3, Homo sapiens, UniProt Q8IVW4): 0%
Tyrosine-protein kinase ABL1, phosphorylated (ABL1, Homo sapiens, UniProt P00519): 94%
Tyrosine-protein kinase ABL1, phosphorylated (ABL1, Homo sapiens, UniProt P00519, Y253F): 93%
Serine/threonine-protein kinase RIO3 (RIOK3, Homo sapiens, UniProt O14730): 100%
Ribosomal protein S6 kinase alpha-1, C-terminal kinase domain (RPS6KA1, Homo sapiens, UniProt Q15418): 84%
Ribosomal protein S6 kinase beta-1 (RPS6KB1, Homo sapiens, UniProt P23443): 88%
3-phosphoinositide-dependent protein kinase 1 (PDPK1, Homo sapiens, UniProt O15530): 92%
Calcium/calmodulin-dependent protein kinase type 1 (CAMK1, Homo sapiens, UniProt Q14012): 87%
